# Experimental data pooled from the literature.
# Numbered parts are unrelated; each lists some results of a single study. Several values in a cell are separate wells, animals, samples, runs or records. Changes are numbered by the printed parent chain.
# Sequence of UniProt Q13554 (whole entry, looked up): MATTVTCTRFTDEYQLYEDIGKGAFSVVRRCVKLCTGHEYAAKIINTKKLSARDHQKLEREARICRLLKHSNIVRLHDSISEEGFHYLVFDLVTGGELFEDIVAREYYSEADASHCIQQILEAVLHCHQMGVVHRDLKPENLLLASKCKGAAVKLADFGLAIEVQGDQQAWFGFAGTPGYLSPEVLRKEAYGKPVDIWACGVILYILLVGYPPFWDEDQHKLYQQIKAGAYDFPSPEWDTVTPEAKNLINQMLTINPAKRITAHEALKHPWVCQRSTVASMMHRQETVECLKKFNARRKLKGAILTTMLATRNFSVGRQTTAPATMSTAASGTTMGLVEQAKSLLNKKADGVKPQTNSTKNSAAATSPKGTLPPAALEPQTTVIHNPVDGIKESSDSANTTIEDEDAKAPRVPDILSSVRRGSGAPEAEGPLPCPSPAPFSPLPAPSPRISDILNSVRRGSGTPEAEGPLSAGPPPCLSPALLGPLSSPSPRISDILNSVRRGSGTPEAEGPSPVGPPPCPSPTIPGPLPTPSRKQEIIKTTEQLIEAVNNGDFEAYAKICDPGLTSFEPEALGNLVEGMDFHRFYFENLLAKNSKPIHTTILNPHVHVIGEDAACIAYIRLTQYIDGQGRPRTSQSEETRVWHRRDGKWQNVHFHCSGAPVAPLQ
# Sequence of UniProt P62344 (whole entry, looked up): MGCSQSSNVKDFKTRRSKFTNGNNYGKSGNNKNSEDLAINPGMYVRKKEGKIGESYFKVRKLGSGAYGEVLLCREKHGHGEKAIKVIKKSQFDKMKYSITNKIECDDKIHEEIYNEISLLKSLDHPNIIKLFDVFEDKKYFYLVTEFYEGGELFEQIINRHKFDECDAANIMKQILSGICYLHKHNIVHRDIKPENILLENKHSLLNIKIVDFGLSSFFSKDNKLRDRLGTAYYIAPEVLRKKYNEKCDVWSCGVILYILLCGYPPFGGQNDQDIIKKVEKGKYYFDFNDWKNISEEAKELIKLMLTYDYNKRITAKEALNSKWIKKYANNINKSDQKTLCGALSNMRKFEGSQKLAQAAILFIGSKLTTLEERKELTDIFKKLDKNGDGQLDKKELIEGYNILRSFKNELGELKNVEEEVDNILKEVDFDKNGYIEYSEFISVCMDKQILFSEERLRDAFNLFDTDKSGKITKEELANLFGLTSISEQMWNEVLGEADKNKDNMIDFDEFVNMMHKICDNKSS
# Sequence of UniProt P54760 (whole entry, looked up): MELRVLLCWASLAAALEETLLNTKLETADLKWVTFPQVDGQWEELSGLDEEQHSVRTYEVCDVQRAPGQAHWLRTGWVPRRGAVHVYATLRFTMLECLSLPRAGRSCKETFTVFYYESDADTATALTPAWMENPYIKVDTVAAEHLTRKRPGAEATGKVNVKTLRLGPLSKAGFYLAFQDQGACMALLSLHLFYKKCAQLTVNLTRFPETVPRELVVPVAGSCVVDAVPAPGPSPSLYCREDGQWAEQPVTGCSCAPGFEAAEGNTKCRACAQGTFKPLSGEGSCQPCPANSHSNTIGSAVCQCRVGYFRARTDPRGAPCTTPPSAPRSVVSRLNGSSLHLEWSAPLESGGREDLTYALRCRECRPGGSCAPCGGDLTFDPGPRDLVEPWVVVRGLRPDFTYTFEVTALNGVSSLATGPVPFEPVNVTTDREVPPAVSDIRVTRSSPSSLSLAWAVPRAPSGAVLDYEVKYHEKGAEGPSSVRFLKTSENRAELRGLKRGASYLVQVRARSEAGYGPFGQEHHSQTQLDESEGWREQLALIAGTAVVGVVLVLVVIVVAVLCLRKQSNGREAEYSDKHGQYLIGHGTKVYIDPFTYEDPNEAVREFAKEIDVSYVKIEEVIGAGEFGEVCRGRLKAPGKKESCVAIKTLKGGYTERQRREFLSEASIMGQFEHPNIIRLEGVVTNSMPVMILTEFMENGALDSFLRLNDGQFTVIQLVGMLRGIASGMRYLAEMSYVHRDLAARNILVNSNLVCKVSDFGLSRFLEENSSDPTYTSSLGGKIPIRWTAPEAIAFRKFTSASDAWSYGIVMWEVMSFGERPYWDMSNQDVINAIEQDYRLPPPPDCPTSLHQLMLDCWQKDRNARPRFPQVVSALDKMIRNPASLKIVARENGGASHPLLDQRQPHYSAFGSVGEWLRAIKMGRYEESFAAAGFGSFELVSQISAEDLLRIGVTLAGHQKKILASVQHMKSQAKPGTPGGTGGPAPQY
# Sequence of UniProt Q00534 (whole entry, looked up): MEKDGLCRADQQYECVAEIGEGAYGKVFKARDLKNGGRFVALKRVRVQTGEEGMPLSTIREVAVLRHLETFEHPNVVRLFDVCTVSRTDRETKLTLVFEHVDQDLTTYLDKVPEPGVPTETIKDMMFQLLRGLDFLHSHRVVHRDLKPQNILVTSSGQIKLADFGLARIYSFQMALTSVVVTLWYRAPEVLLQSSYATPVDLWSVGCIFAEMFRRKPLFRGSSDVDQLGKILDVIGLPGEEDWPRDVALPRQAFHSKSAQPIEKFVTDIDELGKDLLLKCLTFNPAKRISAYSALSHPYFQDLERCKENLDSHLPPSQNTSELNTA
# Sequence of UniProt O75716 (whole entry, looked up): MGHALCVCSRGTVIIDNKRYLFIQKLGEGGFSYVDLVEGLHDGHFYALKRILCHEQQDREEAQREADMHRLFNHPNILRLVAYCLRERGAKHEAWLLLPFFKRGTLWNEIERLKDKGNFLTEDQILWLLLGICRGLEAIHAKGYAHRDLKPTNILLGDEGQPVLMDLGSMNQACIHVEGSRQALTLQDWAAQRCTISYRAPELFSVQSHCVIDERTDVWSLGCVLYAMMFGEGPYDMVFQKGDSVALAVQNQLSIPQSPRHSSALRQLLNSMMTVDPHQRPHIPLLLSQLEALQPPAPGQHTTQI

# Sample 1
# SMILES: CC[C@H](C)c1nc2cc(Nc3ccnc4ccc(S(=O)(=O)C(C)C)cc34)ccc2s1.Cl
# Cell line: HT-29
# Observed: necroptosis protection
# Method: CCK-8
# With: TNF-α SMAC mimetic zVAD
conditions,viability
5 µM,47.8% and 61.7% and 96% and 66.2% and 95.2%
0.078 µM,19.1% and 12.4% and 11.6% and 16.2% and 11.9%
1.25 µM,15.6% and 26.3% and 41.3% and 37.9% and 17.2%

# Sample 2
# Target: CCND1, cyclin fold, Cln2 fusion (human)
# Method: yeast growth competition, sequencing
# Matrix: yeast
# Setting: strong parent motif
# Reference: not given
# Direction: higher = stronger binding
# Starting sequence: viral docking peptide; YKVKRRLVFGADD; partner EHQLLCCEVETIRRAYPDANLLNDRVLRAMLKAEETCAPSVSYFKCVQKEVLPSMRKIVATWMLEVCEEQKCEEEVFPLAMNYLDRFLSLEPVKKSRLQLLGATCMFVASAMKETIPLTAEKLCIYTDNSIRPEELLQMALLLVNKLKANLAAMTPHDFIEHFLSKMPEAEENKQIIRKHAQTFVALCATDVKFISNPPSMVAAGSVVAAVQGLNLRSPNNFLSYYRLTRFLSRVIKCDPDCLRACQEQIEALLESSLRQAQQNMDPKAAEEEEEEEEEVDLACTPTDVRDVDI
Change,normalised enrichment score
R5Y,0.0838
L7G,-0.0485
G10P,2.76
K4E,1.37
L7A,-0.315
D12G,1.34
L7N,0.357
K2N,2.78

# Sample 3
# Compound: COc1ccc2c(c[n+](C)c3c4cc5c(cc4ccc23)OCO5)c1OC
# Observed: enzyme activity
# Mode: inhibitor
# Tested at: 0.5 µM
# Reference: control
target,remaining activity [%]
"Cyclin-dependent kinase 6, with cyclin D3 (CDK6, Homo sapiens, UniProt Q00534)",94.6
"CAMK2B (Homo sapiens, UniProt Q13554)",98.9
"EPHB4 (Homo sapiens, UniProt P54760)",91.7
"STK16 (Homo sapiens, UniProt O75716)",102

# Single results of other studies
SMILES,target,assay,conditions,endpoint,value
CCCOc1ccc([C@@H]2[C@@H](C(=O)O)[C@H](c3ccc4c(c3)OCO4)CN2CC(=O)Nc2c(CC)cccc2CC)cc1,"Calcium-dependent protein kinase 1 (CDPK1, Plasmodium falciparum, UniProt P62344)","cell-free assay, competition with immobilised ligand",1 µM,remaining binding,64%

# A few entries again (sample 3):
target,remaining activity [%]
"CAMK2B (Homo sapiens, UniProt Q13554)",98.9
"Cyclin-dependent kinase 6, with cyclin D3 (CDK6, Homo sapiens, UniProt Q00534)",94.6
"STK16 (Homo sapiens, UniProt O75716)",102
